# Measurements collected from several papers.
# A part holds a random share of what one study measured. “And” joins repeats or separate records; there may be more than shown.
# UniProt P49137, sequence (whole entry, looked up): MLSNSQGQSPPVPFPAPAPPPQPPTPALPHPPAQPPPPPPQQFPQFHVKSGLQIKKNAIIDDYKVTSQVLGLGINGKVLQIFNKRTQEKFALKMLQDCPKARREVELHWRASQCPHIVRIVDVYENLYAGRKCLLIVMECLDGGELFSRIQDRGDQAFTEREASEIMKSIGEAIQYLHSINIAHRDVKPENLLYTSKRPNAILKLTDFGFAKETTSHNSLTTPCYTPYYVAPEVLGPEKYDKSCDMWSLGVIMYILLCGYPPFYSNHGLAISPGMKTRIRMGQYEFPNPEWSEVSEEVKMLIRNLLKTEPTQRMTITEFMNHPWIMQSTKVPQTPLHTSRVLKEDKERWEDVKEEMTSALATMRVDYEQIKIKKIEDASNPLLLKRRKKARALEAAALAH
# UniProt O43683, sequence (whole entry, looked up): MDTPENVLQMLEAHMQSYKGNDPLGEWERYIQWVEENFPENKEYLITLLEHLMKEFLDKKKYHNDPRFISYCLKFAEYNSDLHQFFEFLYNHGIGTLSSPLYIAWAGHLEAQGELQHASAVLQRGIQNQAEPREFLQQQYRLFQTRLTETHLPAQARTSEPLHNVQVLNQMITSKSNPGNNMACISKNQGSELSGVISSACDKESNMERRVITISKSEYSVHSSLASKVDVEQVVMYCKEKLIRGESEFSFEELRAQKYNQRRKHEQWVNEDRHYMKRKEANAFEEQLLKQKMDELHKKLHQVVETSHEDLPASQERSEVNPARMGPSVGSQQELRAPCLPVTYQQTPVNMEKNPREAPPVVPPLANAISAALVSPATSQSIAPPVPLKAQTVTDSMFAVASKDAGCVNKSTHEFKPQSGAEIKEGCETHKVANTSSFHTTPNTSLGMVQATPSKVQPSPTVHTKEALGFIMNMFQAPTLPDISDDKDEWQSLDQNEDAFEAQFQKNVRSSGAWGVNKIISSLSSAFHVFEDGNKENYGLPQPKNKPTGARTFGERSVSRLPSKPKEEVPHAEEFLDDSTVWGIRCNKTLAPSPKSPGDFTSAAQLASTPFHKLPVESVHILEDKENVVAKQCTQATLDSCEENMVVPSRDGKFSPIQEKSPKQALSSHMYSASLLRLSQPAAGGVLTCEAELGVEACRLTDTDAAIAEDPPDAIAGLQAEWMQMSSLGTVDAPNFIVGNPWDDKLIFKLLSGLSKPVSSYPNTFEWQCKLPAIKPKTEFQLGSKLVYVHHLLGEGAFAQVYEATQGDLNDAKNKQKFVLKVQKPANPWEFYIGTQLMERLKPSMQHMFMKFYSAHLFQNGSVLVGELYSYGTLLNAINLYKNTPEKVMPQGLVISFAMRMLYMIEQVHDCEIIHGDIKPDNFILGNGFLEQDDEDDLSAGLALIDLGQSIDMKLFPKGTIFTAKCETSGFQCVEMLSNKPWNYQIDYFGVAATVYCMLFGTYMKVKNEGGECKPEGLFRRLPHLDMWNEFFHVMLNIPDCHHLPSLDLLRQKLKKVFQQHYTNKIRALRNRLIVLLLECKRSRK
# UniProt Q9H2X6, sequence (whole entry, looked up): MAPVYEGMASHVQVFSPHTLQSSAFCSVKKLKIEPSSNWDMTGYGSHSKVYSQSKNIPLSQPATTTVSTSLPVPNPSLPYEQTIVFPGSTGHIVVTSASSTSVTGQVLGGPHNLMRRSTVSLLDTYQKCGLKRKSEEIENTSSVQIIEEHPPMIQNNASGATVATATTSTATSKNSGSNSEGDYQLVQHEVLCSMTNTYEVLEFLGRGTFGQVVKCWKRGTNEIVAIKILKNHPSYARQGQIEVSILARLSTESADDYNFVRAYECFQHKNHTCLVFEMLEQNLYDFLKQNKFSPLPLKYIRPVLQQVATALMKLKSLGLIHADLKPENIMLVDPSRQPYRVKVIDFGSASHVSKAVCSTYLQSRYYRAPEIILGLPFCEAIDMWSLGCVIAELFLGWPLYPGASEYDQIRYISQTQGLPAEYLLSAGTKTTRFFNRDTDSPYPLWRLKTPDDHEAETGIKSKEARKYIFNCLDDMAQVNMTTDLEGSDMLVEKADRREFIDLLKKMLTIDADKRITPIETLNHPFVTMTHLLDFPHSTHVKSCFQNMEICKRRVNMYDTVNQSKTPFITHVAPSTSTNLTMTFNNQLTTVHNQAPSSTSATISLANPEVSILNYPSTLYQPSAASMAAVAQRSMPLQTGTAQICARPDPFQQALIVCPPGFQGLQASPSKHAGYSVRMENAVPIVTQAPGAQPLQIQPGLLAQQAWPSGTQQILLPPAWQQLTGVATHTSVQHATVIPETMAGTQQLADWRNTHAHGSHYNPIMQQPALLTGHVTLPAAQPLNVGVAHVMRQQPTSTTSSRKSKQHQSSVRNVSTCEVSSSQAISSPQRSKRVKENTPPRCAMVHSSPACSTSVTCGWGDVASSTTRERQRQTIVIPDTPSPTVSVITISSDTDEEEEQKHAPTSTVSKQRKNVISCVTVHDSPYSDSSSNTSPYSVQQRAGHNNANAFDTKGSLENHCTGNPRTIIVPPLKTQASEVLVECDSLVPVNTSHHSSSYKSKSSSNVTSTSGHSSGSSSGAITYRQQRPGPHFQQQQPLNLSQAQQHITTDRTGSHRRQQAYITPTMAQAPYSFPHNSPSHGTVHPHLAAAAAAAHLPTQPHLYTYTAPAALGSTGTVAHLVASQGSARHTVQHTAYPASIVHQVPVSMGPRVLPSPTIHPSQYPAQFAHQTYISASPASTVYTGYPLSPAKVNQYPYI
# UniProt Q15569, sequence (whole entry, looked up): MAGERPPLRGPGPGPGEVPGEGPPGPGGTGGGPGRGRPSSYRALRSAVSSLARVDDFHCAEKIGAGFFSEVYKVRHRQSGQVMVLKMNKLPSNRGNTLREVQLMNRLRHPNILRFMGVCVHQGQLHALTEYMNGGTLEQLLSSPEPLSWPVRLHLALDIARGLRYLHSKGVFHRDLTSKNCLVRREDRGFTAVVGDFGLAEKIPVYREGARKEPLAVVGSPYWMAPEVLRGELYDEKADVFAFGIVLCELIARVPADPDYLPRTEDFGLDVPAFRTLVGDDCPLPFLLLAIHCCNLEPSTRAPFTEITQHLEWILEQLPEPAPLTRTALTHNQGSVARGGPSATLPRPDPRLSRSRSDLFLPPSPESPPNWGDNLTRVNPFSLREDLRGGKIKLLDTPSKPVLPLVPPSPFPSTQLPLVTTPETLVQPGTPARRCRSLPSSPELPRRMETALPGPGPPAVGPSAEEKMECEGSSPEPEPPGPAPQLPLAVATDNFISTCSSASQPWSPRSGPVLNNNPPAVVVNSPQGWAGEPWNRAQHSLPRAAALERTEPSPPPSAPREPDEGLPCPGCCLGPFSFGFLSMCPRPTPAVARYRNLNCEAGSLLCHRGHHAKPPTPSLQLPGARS
# UniProt P53778, sequence (whole entry, looked up): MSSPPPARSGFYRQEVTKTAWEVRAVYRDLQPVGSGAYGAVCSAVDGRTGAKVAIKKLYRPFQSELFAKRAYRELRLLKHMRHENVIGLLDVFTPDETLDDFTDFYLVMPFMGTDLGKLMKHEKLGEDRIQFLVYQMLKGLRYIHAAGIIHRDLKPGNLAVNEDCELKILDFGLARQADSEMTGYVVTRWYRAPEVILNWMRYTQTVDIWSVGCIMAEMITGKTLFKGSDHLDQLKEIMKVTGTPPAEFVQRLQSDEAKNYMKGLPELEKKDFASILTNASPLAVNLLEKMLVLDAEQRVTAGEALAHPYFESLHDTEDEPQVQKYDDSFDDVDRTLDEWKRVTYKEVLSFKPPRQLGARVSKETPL
# UniProt P46734, sequence (whole entry, looked up): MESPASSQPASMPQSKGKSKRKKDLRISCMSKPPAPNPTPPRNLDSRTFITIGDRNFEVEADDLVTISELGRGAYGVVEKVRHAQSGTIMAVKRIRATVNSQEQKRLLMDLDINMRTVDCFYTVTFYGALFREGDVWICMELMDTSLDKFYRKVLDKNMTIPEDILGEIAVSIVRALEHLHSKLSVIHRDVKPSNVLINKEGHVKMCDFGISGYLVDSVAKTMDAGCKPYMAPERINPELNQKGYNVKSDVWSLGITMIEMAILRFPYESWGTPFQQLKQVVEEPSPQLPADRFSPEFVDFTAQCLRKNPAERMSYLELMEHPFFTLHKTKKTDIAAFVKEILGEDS

# Block 1
# Species: human
# Matrix: microsomes or S9
# Tested at: 2 µM
# Time: 0.5 h
SMILES,remaining compound [%]
Cc1ccc2c(c1)C(NC(=O)c1ccc(CS(=O)(=O)c3ccc(Br)cc3)o1)CC1(CCCCC1)O2 (stereo not drawn),87.1
CC1CCN([S+]([O-])C23CC4CC(CC(C4)C2)C3)CC1 (stereo not drawn),9.52
CC(C)Oc1ccc(CNC(=O)NC2CCCCNC2=O)cn1 (stereo not drawn),66
Cn1cnnc1C1CCCCN1S(=O)(=O)c1cccc2cccnc12 (stereo not drawn),77
OC/C=C/Cc1cc2cc(Cl)ccc2n1-c1ncccn1,58.3
CCCc1c(C(=O)O)cnn1-c1nc(CC)cc(=O)[nH]1,> 99.9

# Block 2
# Target: Ephrin type-A receptor 2 (EPHA2, Homo sapiens, UniProt P29317)
# UniProt P29317, sequence (whole entry, looked up): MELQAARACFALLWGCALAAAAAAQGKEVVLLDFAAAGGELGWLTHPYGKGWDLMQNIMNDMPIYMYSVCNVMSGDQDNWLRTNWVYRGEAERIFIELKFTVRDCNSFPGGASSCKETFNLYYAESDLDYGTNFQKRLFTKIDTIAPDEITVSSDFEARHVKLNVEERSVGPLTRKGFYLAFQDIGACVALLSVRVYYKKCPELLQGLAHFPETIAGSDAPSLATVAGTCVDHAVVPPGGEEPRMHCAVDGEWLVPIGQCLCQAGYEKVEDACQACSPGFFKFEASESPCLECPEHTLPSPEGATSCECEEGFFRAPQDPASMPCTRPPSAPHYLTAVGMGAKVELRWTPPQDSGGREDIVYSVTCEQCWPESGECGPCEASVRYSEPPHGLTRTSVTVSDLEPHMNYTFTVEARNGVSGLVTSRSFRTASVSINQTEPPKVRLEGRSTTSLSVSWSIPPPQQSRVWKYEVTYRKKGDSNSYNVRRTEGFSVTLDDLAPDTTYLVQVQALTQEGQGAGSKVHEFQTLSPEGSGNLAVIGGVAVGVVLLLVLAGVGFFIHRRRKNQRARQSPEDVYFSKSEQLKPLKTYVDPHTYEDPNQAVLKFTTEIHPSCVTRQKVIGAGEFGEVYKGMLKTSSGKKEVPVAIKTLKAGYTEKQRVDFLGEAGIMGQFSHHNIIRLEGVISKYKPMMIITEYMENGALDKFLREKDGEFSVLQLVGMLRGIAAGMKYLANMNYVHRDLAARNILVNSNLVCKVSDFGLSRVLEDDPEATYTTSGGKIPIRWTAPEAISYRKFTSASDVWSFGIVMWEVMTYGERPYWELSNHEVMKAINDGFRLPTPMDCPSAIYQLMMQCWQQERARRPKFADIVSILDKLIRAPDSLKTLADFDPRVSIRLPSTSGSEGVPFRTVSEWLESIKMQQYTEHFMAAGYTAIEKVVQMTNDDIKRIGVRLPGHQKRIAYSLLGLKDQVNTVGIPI
# Observed: enzyme activity
# Action: inhibitor
# Tested at: 0.5 µM
# Relative to: control
Structure (SMILES),remaining activity [%]
Oc1cccc(-c2nc(N3CCOCC3)c3oc4ncccc4c3n2)c1,99.9
CCCNC(=O)Nc1ccc(Oc2ncnc3cc(OC)c(OC)cc23)cc1Cl,104
O=c1cc(N2CCOCC2)oc2c(-c3ccccc3)cccc12,104
O=Nc1c(-c2c(O)[nH]c3cc(Br)ccc23)[nH]c2ccccc12,70.9
O=C1Nc2ccc(Br)cc2/C1=C/c1cc2c([nH]1)CCCC2,110

# Block 3
# Compound: COc1cc(C(=O)OCCCN2CCCN(CCCOC(=O)c3cc(OC)c(OC)c(OC)c3)CC2)cc(OC)c1OC
# Technique: von Frey test
observed,species,route,dose,time,notes,paw withdrawal threshold
,"mouse, CFA inflammatory pain",subcutaneous,10 mg/kg,5 h post-dose,"third injection, day 5",0.36 g and 0.13 g and 0.23 g
,"mouse, CFA inflammatory pain",intraplantar,10 µg,5 h post-dose,day 3 after CFA,0.27 g and 0.44 g and 0.23 g and 0.17 g and 0.29 g
mechanical pain,"mouse, STZ diabetic neuropathy",intravenous,30 mg/kg,24 h post-dose,"first injection, day 8",0.15 g and 0.36 g and 0.29 g and 0.03 g
mechanical pain,"mouse, STZ diabetic neuropathy",intravenous,30 mg/kg,24 h post-dose,third injection,0.29 g and 0.08 g and 0.13 g
mechanical pain,"mouse, STZ diabetic neuropathy",intravenous,30 mg/kg,3 h post-dose,"first injection, day 8",0.02 g and 0.05 g and 0.23 g and 0.2 g

# Block 4
# SMILES: O=c1nc(-c2ccccn2)sc2ccccc12
# Technique: competition with immobilised ligand
# Tested at: 1 µM
target,observed,remaining binding
"Serine/threonine-protein kinase ICK (CILK1, Homo sapiens, UniProt Q9UPZ9)",binding,83%
"Phosphatidylinositol 4-phosphate 3-kinase C2 domain-containing subunit beta (PIK3C2B, Homo sapiens, UniProt O00750)",cell-free assay,83%
"Epidermal growth factor receptor (EGFR, Homo sapiens, UniProt P00533, del752-759)",cell-free assay,84%
"Dual specificity testis-specific protein kinase 1 (TESK1, Homo sapiens, UniProt Q15569)",binding,84%
"Dual specificity tyrosine-phosphorylation-regulated kinase 1A (DYRK1A, Homo sapiens, UniProt Q13627)",cell-free assay,91%
"Cyclin-dependent kinase 2 (CDK2, Homo sapiens, UniProt P24941)",binding,96%
"Mitotic checkpoint serine/threonine-protein kinase BUB1 (BUB1, Homo sapiens, UniProt O43683)",binding,100%
"Mitogen-activated protein kinase kinase kinase 6 (MAP3K6, Homo sapiens, UniProt O95382)",binding,71%
"Mitogen-activated protein kinase kinase kinase 4 (MAP3K4, Homo sapiens, UniProt Q9Y6R4)",binding,92%
"MAP kinase-activated protein kinase 2 (MAPKAPK2, Homo sapiens, UniProt P49137)",binding,100%
"Protein kinase C delta type (PRKCD, Homo sapiens, UniProt Q05655)",cell-free assay,100%
"Serine/threonine-protein kinase Nek4 (NEK4, Homo sapiens, UniProt P51957)",binding,91%
"Homeodomain-interacting protein kinase 2 (HIPK2, Homo sapiens, UniProt Q9H2X6)",binding,76%
"Dual specificity mitogen-activated protein kinase kinase 3 (MAP2K3, Homo sapiens, UniProt P46734)",binding,75%
"Mitogen-activated protein kinase 12 (MAPK12, Homo sapiens, UniProt P53778)",binding,58%
"Receptor tyrosine-protein kinase erbB-3 (ERBB3, Homo sapiens, UniProt P21860)",binding,83%
"Tyrosine-protein kinase Fer (FER, Homo sapiens, UniProt P16591)",binding,94%
"Mast/stem cell growth factor receptor Kit (KIT, Homo sapiens, UniProt P10721, T670I/V559D)",binding,83%

# Block 5
# SMILES: CC(=O)N[C@@H](Cc1c[nH]c2ccccc12)C(=O)N[C@@H](CCC(=O)C=[N+]=[N-])C(=O)OC(C)C
# Species: mouse
# Matrix: EL4 tumour
# Dose: dose not given
refers to,normalized intensity
FGAR,0.913 and 0.475 and 0.592 and 0.117 and 0.87 and 0.522
quinolinic acid,-0.091 and -0.028 and 0.085 and 0.13 and 0.116 and 0.00742
guanine,-0.32 and -0.0091 and -0.111 and -0.239 and -0.256 and -0.109
isocitrate,-0.0936 and 0.0304 and 0.0105 and -0.199 and -0.0161 and 0.042
fumarate,-0.0638 and -0.218 and 0.0005 and -0.0649 and -0.0545 and -0.248

# Some of these lines once more (block 5):
refers to,normalized intensity
FGAR,0.913 and 0.475 and 0.592 and 0.117 and 0.87 and 0.522
isocitrate,-0.0936 and 0.0304 and 0.0105 and -0.199 and -0.0161 and 0.042
